Published values collected from several papers.
Each line is one published result; not all experiments were run side by side. ± gives the spread as reported.

SMILES = CC[C@H](C)[C@@H]1NC(=O)[C@H](Cc2ccc(O)cc2)NC(=O)[C@@H](N)CSCSC[C@@H](C(=O)N2CCC[C@H]2C(=O)N[C@@H](CC(C)C)C(=O)NCC(N)=O)NC(=O)[C@H](CC(N)=O)NC(=O)[C@H](CCC(N)=O)NC1=O; test = chemical stability; system = male human, serum; setting = 450 µM; measurement = half-life; value = 72 h
SMILES = CC(=CCC(O)C(C)=Cc1csc(C)n1)CC=CC(C)C(O)C(C)C(=O)C(C)(C)C(O)CC(=O)O (stereo not shown); system = human, plasma; setting = intravenous infusion, 27 mg/m2 KOS-1584, 3 h infusion, cycle 1; measurement = half-life; value = 34.6 ± 17 h
SMILES = CC(C)(CCCC/C=C/CCCCCC(C)(C)C(=O)O)C(=O)O; test = allometric estimate from V/CL; system = beagle dog, plasma; measurement = half-life; value = 21.5 h
SMILES = O=C(O)CCC(NP(=O)(O)OCCC[C@@H](NC(=O)CCC(NC(=O)CCCCCNC(=O)CCCCCNC(=O)c1ccc([18F])cc1)C(=O)O)C(=O)O)C(=O)O (stereo partly shown); target or system = PC-3 tumour model; system = host not given, bone; setting = intravenous, 2 h, tumour-bearing; measurement = tracer uptake; value = 0.14 %ID/g
SMILES = N=C(N)NCCC[C@@H]1NC(=O)[C@H](CCCCNC(=O)CNC(=O)CNC(=O)CNC(=O)CC[C@H](NC(=O)CCOCCOCCOCCOCCNC(=O)CC[C@H](NC(=O)CN2CCN(CC(=O)O)CCN(CC(=O)O)CCN(CC(=O)O)CC2)C(=O)NCCOCCOCCOCCOCCC(=O)N[C@@H](CCC(=O)NCC(=O)NCC(=O)NCC(=O)NCCCC[C@@H]2NC(=O)[C@@H](Cc3ccccc3)NC(=O)[C@H](CC(=O)O)NC(=O)CNC(=O)[C@H](CCCNC(=N)N)NC2=O)C(=O)NCC(=O)NCC(=O)NCC(=O)NCCCC[C@@H]2NC(=O)[C@@H](Cc3ccccc3)NC(=O)[C@H](CC(=O)O)NC(=O)CNC(=O)[C@H](CCCNC(=N)N)NC2=O)C(=O)NCC(=O)NCC(=O)NCC(=O)NCCCC[C@@H]2NC(=O)[C@@H](Cc3ccccc3)NC(=O)[C@H](CC(=O)O)NC(=O)CNC(=O)[C@H](CCCNC(=N)N)NC2=O)NC(=O)[C@@H](Cc2ccccc2)NC(=O)[C@H](CC(=O)O)NC(=O)CNC1=O [indium-111 labelled]; system = athymic nude mice, female, U-87 MG glioma xenograft, spleen; setting = intravenous, 3 µCi, 4 h; measurement = tissue uptake; value = 1.54 ± 0.25 %ID/g
SMILES = CC(C)C[C@H](NC(=O)[C@H](Cc1ccc(O)cc1)NC(=O)[C@@H]1CCCN1C(=O)[C@H](CCCNC(=N)N)NC(=O)[C@@H]1CCCN1C(=O)[C@H](CCCCN)NC(=O)[C@H](CC(=O)O)NC(=O)[C@@H]1CCCN1C(=O)[C@H](CCCNC(=N)N)NC(=O)C1(N)CCCCC1)C(=O)N1CCC[C@H]1C(=O)N[C@@H](CCCNC(=N)N)C(=O)N1CCC[C@H]1C(=O)N[C@@H](CCCNC(=N)N)C(=O)N1CCC[C@H]1C(=O)N1CCC[C@H]1C(=O)N[C@@H](CCCNC(=N)N)C(=O)N1CCC[C@H]1C(=O)N[C@H](C(=O)N[C@@H](CCCNC(=N)N)C(=O)N[C@@H](CSc1c(F)c(F)c(-c2c(F)c(F)c(SC[C@H](NC(=O)[C@H](CCCNC(=N)N)NC(=O)[C@@H](NC(=O)[C@@H]3CCCN3C(=O)[C@H](CCCNC(=N)N)NC(=O)[C@@H]3CCCN3C(=O)[C@@H]3CCCN3C(=O)[C@H](CCCNC(=N)N)NC(=O)[C@@H]3CCCN3C(=O)[C@H](CCCNC(=N)N)NC(=O)[C@@H]3CCCN3C(=O)[C@H](CC(C)C)NC(=O)[C@H](Cc3ccc(O)cc3)NC(=O)[C@@H]3CCCN3C(=O)[C@H](CCCNC(=N)N)NC(=O)[C@@H]3CCCN3C(=O)[C@H](CCCCN)NC(=O)[C@H](CC(=O)O)NC(=O)[C@@H]3CCCN3C(=O)[C@H](CCCNC(=N)N)NC(=O)C3(N)CCCCC3)C(C)C)C(=O)NN)c(F)c2F)c(F)c1F)C(=O)NN)C(C)C; test = chemical stability, HPLC; system = human, serum; setting = 0.1 µg/µL, pH 7.4; measurement = half-life; value = ~1 h
SMILES = CSCC[C@H](NC(=O)CNC(=O)[C@H](CC(=O)O)NC(=O)[C@@H](NC(=O)[C@@H](NC(=O)[C@@H](NC(=O)CNC(=O)[C@H](CCC(N)=O)NC(=O)[C@H](CCSC)NC(=O)[C@H](CC(=O)O)NC(=O)[C@H](C)NC(=O)[C@H](C)NC(=O)[C@@H](NC(=O)[C@H](CO)NC(=O)[C@@H](N)CC(C)C)[C@@H](C)O)C(C)C)C(C)C)[C@@H](C)O)C(=O)N[C@@H](C)C(=O)N[C@@H](CO)C(=O)NCC(=O)N[C@@H](CC(C)C)C(=O)N[C@@H](CC(=O)O)C(=O)N[C@@H](CCCCN)C(=O)N[C@@H](CC(=O)O)C(=O)N[C@@H](Cc1ccc(O)cc1)C(=O)N[C@@H](CC(C)C)C(=O)N[C@@H](CCCCN)C(=O)N1CCC[C@H]1C(=O)N[C@@H](CC(=O)O)C(=O)N[C@@H](CC(=O)O)C(=O)O; system = human, serum; setting = intravenous, 4.16 mg/kg, patients, infusion; measurement = half-life; value = 0.105 h
SMILES = CC[C@H](C)C(=O)N1CCC(NC(=O)Nc2ccc(OC(F)(F)F)c(F)c2)CC1; system = human, plasma; setting = oral, 16 mg, single dose, healthy volunteers; measurement = half-life; value = 44.8 h
SMILES = c1ccc(C2(CCNC3CCC4(SCCS4)c4ccccc43)CCOC3(CCCC3)C2)nc1 (stereo not shown); system = Sprague-Dawley rat, plasma; setting = intravenous, 0.05 mg/kg; measurement = half-life; value = 1.37 h
SMILES = CN[C@](C)(C[18F])C(=O)O; target or system = A549 tumour model; system = host not given, liver; setting = 15 min, tumour-bearing; measurement = tracer uptake; value = 5.6 %ID/g
SMILES = CC(C)C[C@@H](NC(=O)[C@@H](Cc1ccccc1)NC(=O)[C@H](N)Cc1ccccc1)C(=O)N[C@H](CCCCN)C(=O)N1CCC(N)(C(=O)O)CC1; system = human, plasma; setting = intravenous, 15 µg/kg; measurement = half-life; value = 2 h
SMILES = O=C(O)CCC(NP(=O)(O)OCCC[C@@H](NC(=O)CCC(NC(=O)CCCCCNC(=O)c1ccc([18F])cc1)C(=O)O)C(=O)O)C(=O)O (stereo partly shown); target or system = CWR22Rv1 tumour model; system = host not given, heart; setting = intravenous, 2 h, tumour-bearing; measurement = tracer uptake; value = 0.17 %ID/g
SMILES = [2H]C([2H])([2H])C([2H])([2H])C([2H])([2H])OC(C(=O)OC1CCNCC1)(c1ccccc1)c1ccccc1; system = male human, plasma; setting = oral, 18 mg, multiple doses; measurement = half-life; value = 70 h

Repeated from above:
SMILES = CC[C@H](C)[C@@H]1NC(=O)[C@H](Cc2ccc(O)cc2)NC(=O)[C@@H](N)CSCSC[C@@H](C(=O)N2CCC[C@H]2C(=O)N[C@@H](CC(C)C)C(=O)NCC(N)=O)NC(=O)[C@H](CC(N)=O)NC(=O)[C@H](CCC(N)=O)NC1=O; test = chemical stability; system = male human, serum; setting = 450 µM; measurement = half-life; value = 72 h
